Published values collected from several papers.
A part holds a random share of what one study measured. Changes are numbered by the printed parent chain.

Block 1 — target: CCNA1, cyclin fold, Cln2 fusion (human); method: yeast growth competition, sequencing; matrix: yeast; setting: weak parent motif; reference: not given; reading: higher = stronger binding
Starting sequence: CDKN1A docking peptide (human); SKACRRLFGPVDS; partner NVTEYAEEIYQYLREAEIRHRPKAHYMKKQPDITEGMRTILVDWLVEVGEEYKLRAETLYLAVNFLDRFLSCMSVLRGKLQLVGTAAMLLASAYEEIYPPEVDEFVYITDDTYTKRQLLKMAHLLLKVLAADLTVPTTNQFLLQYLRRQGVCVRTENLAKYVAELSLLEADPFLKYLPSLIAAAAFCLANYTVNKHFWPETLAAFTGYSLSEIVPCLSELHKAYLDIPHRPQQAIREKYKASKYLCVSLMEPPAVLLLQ
Change	normalised enrichment score
SKACRRLFLPVDS [G9L]	0.634
SKACRRLKGPVDS [F8K]	0.239
SKACMRLFGPVDS [R5M]	-0.00292
SKACRRLDGPVDS [F8D]	0.201
SKACRRKFGPVDS [L7K]	0.35
SKACRRRFGPVDS [L7R]	0.175
SKACRRLFRPVDS [G9R]	0.0901
SKACCRLFGPVDS [R5C]	-0.0514
SKLCRRLFGPVDS [A3L]	0.0699
SKAHRRLFGPVDS [C4H]	0.624
SKACRRLFGPIDS [V11I]	0.523
SKACRRLFGFVDS [P10F]	-0.382
SKDCRRLFGPVDS [A3D]	-0.0557
SKACRSLFGPVDS [R6S]	0.219
SKACRRLFGVVDS [P10V]	-0.0495
SKACRRLFGPKDS [V11K]	0.152
SKACRRLFGPQDS [V11Q]	0.64
SKACWRLFGPVDS [R5W]	-0.116
SKACRRLGGPVDS [F8G]	0.204
SKACRRLFGPVES [D12E]	0.33
SKACRRLFGPVNS [D12N]	0.519

Block 2 — method: protein-binding microarray; form: hairpin DNA; matrix: in vitro; tested at: not given; reference: not given; reading: higher = stronger binding
Target: Runt-related transcription factor 3, Runt domain (RUNX3, Homo sapiens, UniProt Q13761, residues 53-186)
Chain of UniProt Q13761 (53-186, looked up): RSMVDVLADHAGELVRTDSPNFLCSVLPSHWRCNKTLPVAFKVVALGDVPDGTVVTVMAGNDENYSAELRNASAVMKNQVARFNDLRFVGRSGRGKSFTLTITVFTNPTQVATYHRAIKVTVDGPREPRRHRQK
Setting: whole hairpin DNA, median over replicate spots
Oligonucleotide	median fluorescence
CTCAGTTCTGTTGGCTGGACTCCTGTCCAGCCAACAGAACTGAGACACTC	4050 a.u.
GAGGCCTGTTGTGGTTGGCCTCCTGGCCAACCACAACAGGCCTCACACTC (5mC at 34)	6230 a.u.
GAGGCCCAAGCGCAACAGCCTCCTGGCTGTTGCGCTTGGGCCTCACACTC (5mC at 35)	4960 a.u.
CTCAGTTCTGTGCGCTGGACTCCTGTCCAGCGCACAGAACTGAGACACTC	4110 a.u.
GAGGCCTGTTGTGGGTGGCCTCCTGGCCACCCACAACAGGCCTCACACTC (5mC at 30)	4940 a.u.
CTCAGCTCTGTGGGCTGGACTCCTGTCCAGCCCACAGAGCTGAGACACTC (5mC at 6)	4280 a.u.
GAGGCCTGTTGTGCTTGGCCTCCTGGCCAAGCACAACAGGCCTCACACTC (5mC at 14)	4350 a.u.
GAGGCCCAACCCGAACAGCCTCCTGGCTGTTCGGGTTGGGCCTCACACTC	5200 a.u.
GAGGGCTGTCGCGGTTGGCCTCCTGGCCAACCGCGACAGCCCTCACACTC (5mC at 40)	6370 a.u.
CTCAGTTCTATGGGCTGGACTCCTGTCCAGCCCATAGAACTGAGACACTC	3820 a.u.
GAGGCCTGTCGCGGCGGGCCTCCTGGCCCGCCGCGACAGGCCTCACACTC (5mC at 29)	5940 a.u.
GAGGCCTCGTGCGGTTGGCCTCCTGGCCAACCGCACGAGGCCTCACACTC (5mC at 8)	6210 a.u.
GAGGCCTGTCGCGGTTGGCCTCCTGGCCAACCGCGACAGGCCTCACACTC (5mC at 10 12 32 34)	4840 a.u.

Block 3 — method: RNAcompete; form: RNA; matrix: in vitro; tested at: 20 nM; setting: 7-mer, probes averaged, single round; reference: mean of 7-mers; reading: higher = stronger binding
Target: PABPC1L2, full length, GST fusion (mouse, UniProt A0ABA7IW68)
Residues (chain): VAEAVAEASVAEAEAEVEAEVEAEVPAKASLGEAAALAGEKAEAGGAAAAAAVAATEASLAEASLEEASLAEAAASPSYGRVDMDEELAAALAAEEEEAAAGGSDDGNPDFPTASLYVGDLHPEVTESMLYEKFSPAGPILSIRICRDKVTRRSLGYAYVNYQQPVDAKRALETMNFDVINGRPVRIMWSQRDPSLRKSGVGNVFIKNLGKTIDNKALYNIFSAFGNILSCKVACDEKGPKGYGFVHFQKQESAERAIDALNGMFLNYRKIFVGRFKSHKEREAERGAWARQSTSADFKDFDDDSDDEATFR
Oligonucleotide	7-mer Z-score
GAGGCGA	0.273
GUGUUGG	-0.213
GGAUGUA	0.00979
CAGUAGG	-0.0264
CUCUUCA	-0.393
UUACAAG	-0.0645
ACGCACU	-0.0101
GGCAUCC	-0.0609
AAAUUGG	2.22
ACCCGUA	-0.0554
CCGAAUC	-0.271
UUGAGCC	-0.318
GCUAGAU	-0.0663
GCGAAGU	0.0134
CCUUAAC	-0.376
UAUAUAG	-0.05
CGUCAGA	-0.208
CUGGCAC	0.00979
UCAUCUU	-0.374

Block 4 — method: RNA Bind-n-Seq; form: RNA; matrix: in vitro; tested at: 365 nM; reference: no-protein control; reading: higher = stronger binding
Target: RNA binding protein fox-1 homolog 2, RRM domain, GST-SBP tag (RBFOX2, Homo sapiens, UniProt O43251-10, residues 100-194)
Setting: natural RNA segment, single round, ends assumed
Shared flanks, not repeated: GGGAGUUCUACAGUCCGACGAUC … UGGAAUUCUCGGGUGCCAA
Target sequence (chain): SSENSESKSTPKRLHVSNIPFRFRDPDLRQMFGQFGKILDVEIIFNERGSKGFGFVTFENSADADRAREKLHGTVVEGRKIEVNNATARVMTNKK
Oligonucleotide	RBNS enrichment (R)
CCUUUGCCAGGUGCUUAUUUAAGUACAAAUCCUUUUCAAAGGACUCUAGUGUUCAGUUGUUGAUGUGCCCCUGCCCACUGCCUGCUCGAGGAAUACCUCUGUUCUACCCA	0.493
ACUUCACUGUCCAUGGGUCCUAGACAGGCCUGCAGGCAGGCAGGGUGCACACGCCUUCCUUCCCUCCCAGGCACUCCACGGAGUCAUCUUGGGUCUCCUGGGAUUCUAGG	0.187
UAGUCUGCUGCUUUCCUGGGUGGAUGAACCUCUUUAUUAUGGUAACUUCUGUGCUGCUUUGCCCCUAGCCAAGGCUCUCCUUCCCCAAGAGGUUAGCUUUGGCAUUGGAA	0.369
AAAUUGGUUUAGUUGCUGUAUAUCACCAUAGCCCCUGUUUACGUCAAACCUGUGUCUCGCUCUAUAUGCACUUUGUUUACUCUUUAUACAAUAAACAUACUAAAGACUUC	0.318
CUCUUCAGUCUUCCUGUUCACCCCUCCUCCACUCCCUUUAACCGCAAAACUAGGUGCUGUGGCCCCAGACUACCCAUCCUUAAAAUGAUCCUUGCCCAGCGGUGGGAGCU	0.38
UUAUGGUAUAACUGGGUCCCUCAACAGUAACCUGGGCUAAAAUAGGUCUUAUGUGGUUCAACUCCCACCCCCGCCUUCCCCAUAUUUUCAACCACUCUGAUUAUCUUCCC	0.836
CCCAGCCUUGUUACCUCACUCCUGCUCCAGCCAUUGUGAUGGGCUCAGCCAGCUCCCUGUUCUGAUGUGCCCUGCAACAACAGCUCAGGGGUCUUGUGACUUGGAGAGGU	0.385
CAACUUGAACACGGUUUGCACAAUGGUAUAACGAGGCAACCUUUGCCUUCUUCAGAAGCUUGGAAAUCGACACACAAAACAGUGCACAUUUAGUUCACUGCUAAACAAAU	0.303

For quick reference, copied from above (block 1):
Change	normalised enrichment score
SKACRRLFRPVDS [G9R]	0.0901
SKACRRLFGPIDS [V11I]	0.523
SKACRRLKGPVDS [F8K]	0.239
SKACRRLFGFVDS [P10F]	-0.382
SKACMRLFGPVDS [R5M]	-0.00292
